Measured values pooled from the literature.
Numbered parts are unrelated; each lists some results of a single study. Positions count from the first letter of the parent shown.

Series 1
Target: CCNE2, cyclin fold, Cln2 fusion (human)
Technique: yeast growth competition, sequencing
Matrix: yeast
Setting: weak parent motif
Relative to: not given
Direction: higher = stronger binding
Quantity: normalised enrichment score
Starting sequence: SAMHD1 docking peptide (human); ASKSRVQLFKDDP
ASKSYVQLFKDDP [R5Y]: 0.113
ASKSRVQLFKWDP [D11W]: -0.142
ASKSRVQLAKDDP [F9A]: 0.0861
AAKSRVQLFKDDP [S2A]: 0.257
ASKSRVQLNKDDP [F9N]: 0.0588
ASKSRVQLFKDTP [D12T]: 0.317
ASKSRVQLFKDIP [D12I]: 0.526
ASKPRVQLFKDDP [S4P]: 0.0655
ASKSRVQLFKDWP [D12W]: 0.574
ASKSRVQLMKDDP [F9M]: 0.388
ASKSRVQLKKDDP [F9K]: 0.122
ASKSRVELFKDDP [Q7E]: -0.198
ASKSRVQLSKDDP [F9S]: -0.0944
ASKSRVQLFEDDP [K10E]: -0.126
ASKSREQLFKDDP [V6E]: -0.212
ASRSRVQLFKDDP [K3R]: 0.0339
ASKSRVQLFKLDP [D11L]: 0.166
ASKSRVKLFKDDP [Q7K]: 0.183
ASKSRVQLFKDKP [D12K]: 0.329
ASFSRVQLFKDDP [K3F]: 0.0719
ASKSRVFLFKDDP [Q7F]: 0.393
ASKSRVQLFKTDP [D11T]: 0.576

Series 2
Target: CREM, bZIP domain (human)
Technique: DHFR protein complementation
Matrix: yeast
Setting: single substitutions, most at no-binding floor
Relative to: wild-type JUN-FOS pair
Direction: higher = stronger binding
Quantity: binding fitness
Starting sequence: JUN, bZIP domain (human); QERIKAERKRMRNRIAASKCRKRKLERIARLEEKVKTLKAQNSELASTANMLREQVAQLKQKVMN; partner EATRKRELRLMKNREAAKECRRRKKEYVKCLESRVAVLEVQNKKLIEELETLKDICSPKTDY
L52Q: -1.54 natural log
T37W: -1.44 natural log
E44V: -1.45 natural log
S43V: -1.38 natural log
A49V: -1.37 natural log
R53K: -1.26 natural log
R30F: -1.35 natural log
L45K: -1.43 natural log
A40L: -1.49 natural log
V56S: -1.59 natural log
I28W: -1.34 natural log

Series 3
Target: Sal-like protein 4, full length isoform A (SALL4, Homo sapiens, UniProt Q9UJQ4, residues 1-1053)
UniProt Q9UJQ4, sequence (whole entry, looked up): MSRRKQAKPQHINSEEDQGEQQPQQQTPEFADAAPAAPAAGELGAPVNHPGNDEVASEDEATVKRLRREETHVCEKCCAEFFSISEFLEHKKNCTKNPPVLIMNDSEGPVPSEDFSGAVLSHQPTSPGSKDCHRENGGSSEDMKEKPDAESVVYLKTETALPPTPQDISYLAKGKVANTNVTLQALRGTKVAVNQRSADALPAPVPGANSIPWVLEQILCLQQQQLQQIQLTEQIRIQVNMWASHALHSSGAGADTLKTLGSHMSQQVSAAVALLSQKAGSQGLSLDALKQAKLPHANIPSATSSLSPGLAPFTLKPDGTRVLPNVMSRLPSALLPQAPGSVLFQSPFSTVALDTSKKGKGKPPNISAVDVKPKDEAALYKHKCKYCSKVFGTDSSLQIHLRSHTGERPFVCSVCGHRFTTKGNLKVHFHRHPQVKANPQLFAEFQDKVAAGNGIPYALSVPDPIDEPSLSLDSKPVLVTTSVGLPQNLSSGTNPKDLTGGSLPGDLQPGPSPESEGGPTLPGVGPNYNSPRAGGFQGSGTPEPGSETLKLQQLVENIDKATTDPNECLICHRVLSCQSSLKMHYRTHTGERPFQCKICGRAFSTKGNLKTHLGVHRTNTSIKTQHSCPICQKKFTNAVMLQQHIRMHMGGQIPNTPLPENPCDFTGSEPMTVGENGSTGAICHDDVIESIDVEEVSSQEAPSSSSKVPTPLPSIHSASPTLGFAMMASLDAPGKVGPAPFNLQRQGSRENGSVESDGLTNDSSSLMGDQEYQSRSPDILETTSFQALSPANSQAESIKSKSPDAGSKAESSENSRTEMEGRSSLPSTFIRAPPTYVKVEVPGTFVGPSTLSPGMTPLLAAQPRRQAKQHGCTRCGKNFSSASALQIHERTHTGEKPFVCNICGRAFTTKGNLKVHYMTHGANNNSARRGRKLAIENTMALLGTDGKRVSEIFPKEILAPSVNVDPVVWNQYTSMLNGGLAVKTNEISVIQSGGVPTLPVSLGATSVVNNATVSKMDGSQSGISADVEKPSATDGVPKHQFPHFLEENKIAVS
Technique: universal PBM
Molecule type: double-stranded DNA, one strand shown
Matrix: in vitro
Concentration: 600 nM
Setting: 8-mer, flanks averaged, mean of replicates
Direction: higher = stronger binding
Quantity: E-score
AGGCAGGC: -0.262
AAGATCCG: -0.171
CGAGCTAA: -0.188
AAGTGGCT: -0.125
CCCATAAC: 0.161
CGACCCTA: -0.287
CCATAACC: 0.136
ACCGCTTA: -0.154
GCCCACAA: -0.153
AGACTAGA: -0.0258
GGGCTGTA: -0.194
TACCCAAA: 0.035
GAGCCAAA: -0.0789
AACAGTAG: 0.104
TCTGAAAA: 0.136
AACTCCCG: -0.0907
CTCTACTA: 0.18
ACTTTGCA: 0.106
GATGCGAC: -0.149
ATGATCTG: 0.135
AGTCCACC: -0.24
ACTGATGC: -0.081
AGGCCTAT: 0.0469
AATGGTAT: 0.249
CGTTTAGC: -0.0811

Series 4
Target: Ras GTPase-activating protein-binding protein 1, full length (G3BP1, Homo sapiens, UniProt Q13283)
UniProt Q13283, sequence (whole entry, looked up): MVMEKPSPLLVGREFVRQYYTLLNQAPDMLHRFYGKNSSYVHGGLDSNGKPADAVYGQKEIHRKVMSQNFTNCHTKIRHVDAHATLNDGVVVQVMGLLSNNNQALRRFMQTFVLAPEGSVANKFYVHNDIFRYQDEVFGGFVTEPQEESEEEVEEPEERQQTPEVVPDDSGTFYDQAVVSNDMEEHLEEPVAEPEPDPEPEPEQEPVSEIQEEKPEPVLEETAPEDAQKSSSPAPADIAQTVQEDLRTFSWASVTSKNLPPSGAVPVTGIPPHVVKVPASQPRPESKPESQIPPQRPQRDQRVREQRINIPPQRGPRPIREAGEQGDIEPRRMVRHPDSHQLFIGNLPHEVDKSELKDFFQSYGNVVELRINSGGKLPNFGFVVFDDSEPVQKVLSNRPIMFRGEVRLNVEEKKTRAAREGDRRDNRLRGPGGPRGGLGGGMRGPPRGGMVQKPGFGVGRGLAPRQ
Technique: RNA Bind-n-Seq
Molecule type: RNA
Matrix: in vitro
Concentration: 200 nM
Setting: whole 134-nt RNA, ends assumed
Together with: 150 mM KCl
Relative to: input library
Direction: higher = stronger binding
Quantity: log2 enrichment
All sequences stand within: GGGAGUUCUACAGUCCGACGAUC … UGGAAUUCUCGGGUGUCAAGG
CAAGUCCUGUGCUACACAUCGUAUGUACCGAAUCGGAGGAAAAAAAGGUUUUUGGAAAGUAUUAUGUUACGCCGUUCGGAUCUGCACUUC: -1.15
UCAAGUCCUGUGCUACACAUCGUAUGUACCGAAUCGGGCCCGGCCCGGGGCCCGGAAAGUAUUAUGUUACGCCGUUCGGAUCUGCACUUC: -0.873
GCAGGAAGUAAAAACAAAUGGAAAUGCUUAGGAUAGUGGCAGGGGUGGGGGUUGCUAAGGAAAGGGUGGGAUGGGAGUGGGUAAAGAGUU: 0.852
CCUCAAGUCCUGUGCUACACAUCGUAUGUACCGAAUCGGUGGAGGAAAAAGGAAAGUAUUAUGUUACGCCGUUCGGAUCUGCACUUCCAG: -0.0889
GUCCUGUGCUACACAUCGUAUGUACCGAAUCGGAAAAAAAGGUUUUUGGAAAAAAAGGAAAGUAUUAUGUUACGCCGUUCGGAUCUGCAC: -1.35
AGUCCUGUGCUACACAUCGUAUGUACCGAAUCGGGUUUUGGGUUUUGGGUUUUGGGGAAAGUAUUAUGUUACGCCGUUCGGAUCUGCACU: 0.0838
AAGUCCUGUGCUACACAUCGUAUGUACCGAAUCGGGGUUUUGGGGUUUUGGUUUUGGAAAGUAUUAUGUUACGCCGUUCGGAUCUGCACU: -0.523
UGUGCUACACAUCGUAUGUACCGAAUCGGGGAAAAAGGGGUUUUUUUGGGGAAAAAAAGGGGAAAGUAUUAUGUUACGCCGUUCGGAUCU: -0.308
UGGGAGGUGGAUUUUGUUAAUUUUUUUAGCUCAUUUCCAGGGGUGGGAAUUUUUUUUUAAUAUGUGUCAUGAAUAAAGUUGUUUUUGAAA: 0.0843

Series 5
Target: RING finger protein unkempt homolog, zinc fingers 1-6, GST-SBP tag (UNK, Homo sapiens, UniProt Q9C0B0, residues 30-357)
Technique: RNA Bind-n-Seq
Molecule type: RNA
Matrix: in vitro
Concentration: not given
Setting: RNA with constant flanks, human and mouse sites, ends assumed
Relative to: input RNA pool
Direction: higher = stronger binding
Quantity: bound/input enrichment
All sequences stand within: GGGAGUUCUACAGUCCGACGAUC … CAACAGAGGAUUGAGCAUCA
Construct (chain): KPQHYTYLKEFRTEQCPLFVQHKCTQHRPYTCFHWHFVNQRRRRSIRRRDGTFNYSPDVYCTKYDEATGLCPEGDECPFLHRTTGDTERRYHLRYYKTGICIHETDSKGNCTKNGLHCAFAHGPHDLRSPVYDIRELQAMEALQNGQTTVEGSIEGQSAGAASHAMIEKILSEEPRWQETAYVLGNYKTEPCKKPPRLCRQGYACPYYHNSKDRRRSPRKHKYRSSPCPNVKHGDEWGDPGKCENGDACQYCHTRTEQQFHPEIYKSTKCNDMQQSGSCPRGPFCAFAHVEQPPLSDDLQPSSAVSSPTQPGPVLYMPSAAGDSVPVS
GCUUUUCAAGCCAAGGAUGUGGAAGGAUCUACUUCUCCUCAAAUAGGAGAUAAGGUUGAAUUUAGUAUUAGUGACAAACAGAGGCCUGGACAGCAGAUUGCAACUUGCGUGAGACUUUUA: 4.84 ratio
CUCUCCACAGAAAAUUUCCAGAUCAAGCAGGAUUCUUCUACUGGCUCCUACUCCAUCAAUUUUGUUCAAAAUCCGAAUAAUAAUAGAUAACAGAAAUAACAGUCUUAAAGGCUGACUGGG: 0.26 ratio
CCGACUUUGCUUUUGCAGGUCUUUCACUGCAGAUGGGGCUGCUGUGGGAGUUGGGACUUGUUUGUUUUCCUUUUUGAGUUCACGUUGGAUCCUUUCUUGUACAACUUCUGCGGAAGGACA: 0.0769 ratio
AACAGCAUCAUACAUAGUGAAUGAUGUUCAUUGGAAAAUUCUAAAAUUUGUCCUUGUCUAGGUUGAGAACUUUUACACACACUAAGAUAAAGAUAGAAAUCUGACAUGCUCACUCAAUUC: 0.528 ratio
UCCAAGAGGCCUUCUAUGUGAAAGCCCGAGACAGAAAACUUCUUGCUAUCUACCUCCACCAUGAUGAAAGUGUACUAACCAACGUGUUCUGCUCACAAAUGCUUUGUGCUGAAUCCAUUG: 0.207 ratio
GCUCAUGCCUACCACAGCCGCUGCGUGGACCCCUGGCUCACUCAGACCCGGAAGACCUGCCCCAUUUGCAAGCAGCCUGUUCAUCGGGGUCCUGGGGACGAAGACCAAGAGGAAGAAACU: 0.118 ratio
CAGUCACCGCUUUCUUCUCUAAAACAACUUCUUUUUUUUUUUUAACACAUCUUUUCCAUGUAGCAACCAAAGCCAGAGCCAUGUUCUAACCCUAUGCCCUUCUCAAGCCUGGCUGCUCAC: 2.2 ratio
CAAGAUAAAUUUCAGACCAUGUCUGACCAGAUCAUUGGGAGAAUUGAUGAUAUGAGUAGUCGCAUUGAUGAUCUGGAAAAGAAUAUCGCGGACCUCAUGACACAGGCUGGGGUGGAAGAA: 0.446 ratio

Further values, each from its own experiment
PhoQ, residues 284 288 289 292 302 303 NLGVHL  fold induction (PhoP, residues 12 14 15 18 19 SGWQI (Escherichia coli, UniProt P23836); Sort-seq, item: YFP reporter; E. coli; PhoQ-PhoP variant library, together with: 10 µM Mg2+; relative to: high Mg2+ state, higher = stronger signaling): 10.6

For quick reference, copied from above (series 2):
L52Q: -1.54 natural log
T37W: -1.44 natural log
E44V: -1.45 natural log
S43V: -1.38 natural log
A49V: -1.37 natural log
R53K: -1.26 natural log
